Results from different studies.
Numbered parts are unrelated; each lists some results of a single study. Positions count from the first letter of the parent shown.
Chain of UniProt Q16659 (whole entry, looked up): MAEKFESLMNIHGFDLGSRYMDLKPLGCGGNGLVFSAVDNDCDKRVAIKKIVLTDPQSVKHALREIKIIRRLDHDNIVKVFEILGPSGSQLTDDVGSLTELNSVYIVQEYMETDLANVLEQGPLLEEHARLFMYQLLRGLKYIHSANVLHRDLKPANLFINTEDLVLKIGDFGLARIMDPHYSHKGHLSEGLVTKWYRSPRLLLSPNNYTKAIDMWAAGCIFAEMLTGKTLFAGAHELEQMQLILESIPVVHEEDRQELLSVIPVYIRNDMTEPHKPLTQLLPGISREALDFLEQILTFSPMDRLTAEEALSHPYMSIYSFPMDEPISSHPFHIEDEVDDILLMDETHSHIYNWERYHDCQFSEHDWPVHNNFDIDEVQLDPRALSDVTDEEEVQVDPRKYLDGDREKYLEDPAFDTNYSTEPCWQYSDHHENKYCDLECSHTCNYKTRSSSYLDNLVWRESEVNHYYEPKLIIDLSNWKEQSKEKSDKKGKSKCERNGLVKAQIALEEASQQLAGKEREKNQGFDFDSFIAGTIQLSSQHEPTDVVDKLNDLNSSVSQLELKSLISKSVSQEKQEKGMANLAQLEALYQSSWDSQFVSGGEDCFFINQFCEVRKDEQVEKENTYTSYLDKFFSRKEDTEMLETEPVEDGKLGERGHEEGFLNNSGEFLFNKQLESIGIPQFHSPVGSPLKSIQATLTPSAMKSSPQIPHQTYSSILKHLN
Chain of UniProt P50750 (whole entry, looked up): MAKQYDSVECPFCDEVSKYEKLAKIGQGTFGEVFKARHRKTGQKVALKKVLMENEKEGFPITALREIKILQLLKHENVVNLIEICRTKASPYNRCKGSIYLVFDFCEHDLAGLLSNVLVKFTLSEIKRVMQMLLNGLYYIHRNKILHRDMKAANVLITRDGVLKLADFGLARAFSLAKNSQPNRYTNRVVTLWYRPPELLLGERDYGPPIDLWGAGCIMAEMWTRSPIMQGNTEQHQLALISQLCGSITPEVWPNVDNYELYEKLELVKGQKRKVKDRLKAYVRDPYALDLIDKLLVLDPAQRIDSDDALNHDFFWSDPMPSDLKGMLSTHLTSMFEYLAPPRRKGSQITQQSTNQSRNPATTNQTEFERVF
Chain of UniProt O94768 (whole entry, looked up): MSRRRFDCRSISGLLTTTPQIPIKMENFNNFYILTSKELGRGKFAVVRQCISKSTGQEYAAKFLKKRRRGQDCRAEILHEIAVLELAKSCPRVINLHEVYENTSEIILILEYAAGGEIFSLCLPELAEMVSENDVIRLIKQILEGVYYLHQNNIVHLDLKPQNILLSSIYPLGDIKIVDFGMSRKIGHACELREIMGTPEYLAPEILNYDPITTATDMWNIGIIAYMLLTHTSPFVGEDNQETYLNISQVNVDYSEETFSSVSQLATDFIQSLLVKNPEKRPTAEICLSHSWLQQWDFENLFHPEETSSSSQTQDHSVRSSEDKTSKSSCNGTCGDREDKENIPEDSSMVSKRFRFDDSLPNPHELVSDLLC
Chain of UniProt P42336 (whole entry, unmodified, looked up): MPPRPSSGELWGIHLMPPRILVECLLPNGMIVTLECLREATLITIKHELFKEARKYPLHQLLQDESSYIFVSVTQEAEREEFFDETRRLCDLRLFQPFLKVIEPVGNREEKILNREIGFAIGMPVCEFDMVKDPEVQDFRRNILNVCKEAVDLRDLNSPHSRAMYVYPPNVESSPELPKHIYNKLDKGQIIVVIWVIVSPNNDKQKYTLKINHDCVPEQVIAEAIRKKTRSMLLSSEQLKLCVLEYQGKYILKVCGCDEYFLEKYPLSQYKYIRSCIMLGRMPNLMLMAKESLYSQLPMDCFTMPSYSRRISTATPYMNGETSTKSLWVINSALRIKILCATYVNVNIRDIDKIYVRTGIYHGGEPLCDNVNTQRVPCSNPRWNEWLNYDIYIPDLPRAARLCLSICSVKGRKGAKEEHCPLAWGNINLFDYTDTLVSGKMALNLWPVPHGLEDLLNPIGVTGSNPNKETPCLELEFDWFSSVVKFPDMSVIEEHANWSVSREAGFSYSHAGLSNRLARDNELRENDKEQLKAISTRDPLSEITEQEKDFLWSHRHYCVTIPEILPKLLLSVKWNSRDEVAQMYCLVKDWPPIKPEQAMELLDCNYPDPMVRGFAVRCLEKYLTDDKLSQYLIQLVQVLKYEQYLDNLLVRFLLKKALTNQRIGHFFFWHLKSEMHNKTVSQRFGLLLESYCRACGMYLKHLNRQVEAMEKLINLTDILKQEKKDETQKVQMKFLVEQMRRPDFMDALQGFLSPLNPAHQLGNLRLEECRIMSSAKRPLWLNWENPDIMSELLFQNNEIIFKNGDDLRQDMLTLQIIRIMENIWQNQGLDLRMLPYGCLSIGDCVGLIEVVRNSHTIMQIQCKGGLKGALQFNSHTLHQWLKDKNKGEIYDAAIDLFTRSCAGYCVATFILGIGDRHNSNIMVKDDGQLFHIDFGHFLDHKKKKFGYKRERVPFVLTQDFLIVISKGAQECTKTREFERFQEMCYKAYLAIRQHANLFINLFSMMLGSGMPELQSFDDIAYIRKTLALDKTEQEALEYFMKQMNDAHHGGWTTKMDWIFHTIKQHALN
Chain of UniProt Q9Y6E0 (whole entry, looked up): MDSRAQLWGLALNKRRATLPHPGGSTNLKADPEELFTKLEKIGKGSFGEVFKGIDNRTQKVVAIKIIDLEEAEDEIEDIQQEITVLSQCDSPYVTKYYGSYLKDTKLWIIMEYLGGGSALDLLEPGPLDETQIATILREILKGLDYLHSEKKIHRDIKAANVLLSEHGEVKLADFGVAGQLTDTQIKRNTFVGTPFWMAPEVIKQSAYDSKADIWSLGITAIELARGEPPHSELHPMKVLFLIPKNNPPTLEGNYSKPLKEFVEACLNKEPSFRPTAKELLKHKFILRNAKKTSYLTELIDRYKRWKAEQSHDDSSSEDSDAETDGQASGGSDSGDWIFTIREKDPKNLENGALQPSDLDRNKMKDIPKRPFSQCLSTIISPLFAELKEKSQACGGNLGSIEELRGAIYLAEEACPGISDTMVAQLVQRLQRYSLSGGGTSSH
Chain of UniProt Q9UPE1 (whole entry, looked up): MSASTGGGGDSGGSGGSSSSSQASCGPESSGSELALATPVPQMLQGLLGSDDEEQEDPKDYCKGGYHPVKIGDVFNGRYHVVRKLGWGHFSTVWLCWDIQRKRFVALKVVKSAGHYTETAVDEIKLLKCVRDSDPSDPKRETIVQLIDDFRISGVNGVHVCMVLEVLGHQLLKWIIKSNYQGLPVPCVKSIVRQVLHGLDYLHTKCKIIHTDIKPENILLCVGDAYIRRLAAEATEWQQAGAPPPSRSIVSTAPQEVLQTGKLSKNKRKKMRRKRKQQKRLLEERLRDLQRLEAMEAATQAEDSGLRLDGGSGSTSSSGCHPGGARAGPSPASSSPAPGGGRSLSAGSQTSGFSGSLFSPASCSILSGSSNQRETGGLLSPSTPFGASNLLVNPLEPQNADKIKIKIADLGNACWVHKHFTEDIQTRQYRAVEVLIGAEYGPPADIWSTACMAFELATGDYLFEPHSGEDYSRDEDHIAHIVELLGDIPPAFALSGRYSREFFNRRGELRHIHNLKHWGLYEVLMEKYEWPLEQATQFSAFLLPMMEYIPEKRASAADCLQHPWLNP
Chain of UniProt Q13882 (whole entry, looked up): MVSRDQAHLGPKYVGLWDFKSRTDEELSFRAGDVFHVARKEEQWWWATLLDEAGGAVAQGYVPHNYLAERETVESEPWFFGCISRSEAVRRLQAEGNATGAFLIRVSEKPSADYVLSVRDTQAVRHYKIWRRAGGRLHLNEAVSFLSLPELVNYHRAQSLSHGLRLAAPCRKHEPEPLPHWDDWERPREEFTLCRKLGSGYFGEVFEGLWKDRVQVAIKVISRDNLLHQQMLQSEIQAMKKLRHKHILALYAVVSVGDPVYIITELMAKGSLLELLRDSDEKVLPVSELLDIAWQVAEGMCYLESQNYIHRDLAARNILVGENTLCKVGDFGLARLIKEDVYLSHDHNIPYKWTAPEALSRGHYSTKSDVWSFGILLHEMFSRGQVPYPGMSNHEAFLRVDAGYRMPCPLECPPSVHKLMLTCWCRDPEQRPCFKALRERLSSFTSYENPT

Block 1
Target: Cyclin-dependent kinase 6, with cyclin D1 (CDK6, Homo sapiens, UniProt Q00534)
Chain of UniProt Q00534 (whole entry, looked up): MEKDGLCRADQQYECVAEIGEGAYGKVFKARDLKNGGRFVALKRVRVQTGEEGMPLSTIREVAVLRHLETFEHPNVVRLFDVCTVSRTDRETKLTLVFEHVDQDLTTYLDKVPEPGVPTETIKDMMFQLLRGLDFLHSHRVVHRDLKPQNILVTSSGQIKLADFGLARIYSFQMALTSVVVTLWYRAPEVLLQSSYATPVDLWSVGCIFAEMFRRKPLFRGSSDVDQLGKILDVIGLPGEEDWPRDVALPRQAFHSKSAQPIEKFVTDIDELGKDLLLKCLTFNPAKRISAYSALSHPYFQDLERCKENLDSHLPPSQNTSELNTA
Read-out: enzyme activity
Mode: inhibitor
Concentration: 0.5 µM
Reference: control
Structure (SMILES)	remaining activity
Cn1sc(=O)n(Cc2ccccc2)c1=O	106%
Cc1cccc(-c2[nH]c(C(C)(C)C)nc2-c2ccc3c(c2)OCO3)n1	95.2%
O=C1NC(=O)C(c2cn(CCCn3ccnc3)c3ccccc23)=C1Nc1ccccc1	83.1%

Block 2
Target: Ras GTPase-activating protein-binding protein 1, full length (G3BP1, Homo sapiens, UniProt Q13283)
Chain of UniProt Q13283 (whole entry, looked up): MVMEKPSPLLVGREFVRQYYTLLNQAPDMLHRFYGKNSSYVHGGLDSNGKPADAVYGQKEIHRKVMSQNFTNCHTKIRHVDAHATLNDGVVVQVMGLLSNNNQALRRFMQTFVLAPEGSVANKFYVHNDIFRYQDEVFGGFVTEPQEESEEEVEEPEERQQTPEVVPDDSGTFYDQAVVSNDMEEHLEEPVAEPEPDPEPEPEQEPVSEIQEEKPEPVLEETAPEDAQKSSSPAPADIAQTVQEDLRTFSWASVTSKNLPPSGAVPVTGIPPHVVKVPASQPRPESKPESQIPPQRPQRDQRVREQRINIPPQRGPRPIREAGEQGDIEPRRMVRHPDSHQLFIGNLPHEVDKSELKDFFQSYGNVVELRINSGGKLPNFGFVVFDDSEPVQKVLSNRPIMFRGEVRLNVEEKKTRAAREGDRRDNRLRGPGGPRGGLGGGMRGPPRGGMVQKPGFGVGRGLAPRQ
Method: RNA Bind-n-Seq
Molecule type: RNA
Medium: in vitro
Concentration: 200 nM
Setting: whole 134-nt RNA, ends assumed
Added: 150 mM LiCl
Reference: input library
Reading: higher = stronger binding
Each molecule: 7-deaza-guanosine replaces G
Constant ends, left off below: GGGAGUUCUACAGUCCGACGAUC … UGGAAUUCUCGGGUGUCAAGG
Strand	log2 enrichment
CACAGACAACACGCACCCACACAGACACAGAGGGAAGGGGUUGGGAUGGGGACAGGGAGCACAGCAGGGCGGGGUAGGACCCCAGCCCCU	0.195
UCCUGUGCUACACAUCGUAUGUACCGAAUCGGUUUUUUGGGUUUUUUGGGGUUUUUUGGGAAAGUAUUAUGUUACGCCGUUCGGAUCUGC	0.565
UCCUCAAGUCCUGUGCUACACAUCGUAUGUACCGAAUCGGCGGCGGCGGGGAAAGUAUUAUGUUACGCCGUUCGGAUCUGCACUUCCAGC	1.1
CAAGUCCUGUGCUACACAUCGUAUGUACCGAAUCGGAAAGGUUUUUGGUUUUUGGAAAGUAUUAUGUUACGCCGUUCGGAUCUGCACUUC	-1.51
CCUGUGCUACACAUCGUAUGUACCGAAUCGGUUUUUUUGGUUUUUUUGGGGUUUUUUUGGAAAGUAUUAUGUUACGCCGUUCGGAUCUGC	0.684
CCUGUGCUACACAUCGUAUGUACCGAAUCGGGCCCCCCCGGCCCCCCCGGCCCCCCCGGGAAAGUAUUAUGUUACGCCGUUCGGAUCUGC	0.205
GCAGGAAGUAAAAACAAAUGGAAAUGCUUCGGAUAGUGGCAGGGGUGGGGGUUGCUAAGGAAAGGGUGGGAUGGGAGUAAAUAAAGAGUU	-0.121
CCUGUGCUACACAUCGUAUGUACCGAAUCGGGGAAAAAGGGGAAAAAGGGGUUUUUGGGGAAAGUAUUAUGUUACGCCGUUCGGAUCUGC	0.71

Block 3
Change: E152M
Target: ABI1, truncated, D143A, DHFR fusion (Arabidopsis thaliana)
Method: DHFR PCA, deep sequencing
Medium: yeast
Setting: methotrexate growth selection, single substitutions
Reference: wild-type fitted maximum
Reading: higher = stronger binding
Starting sequence: PYL1, truncated, DHFR fusion (Arabidopsis thaliana); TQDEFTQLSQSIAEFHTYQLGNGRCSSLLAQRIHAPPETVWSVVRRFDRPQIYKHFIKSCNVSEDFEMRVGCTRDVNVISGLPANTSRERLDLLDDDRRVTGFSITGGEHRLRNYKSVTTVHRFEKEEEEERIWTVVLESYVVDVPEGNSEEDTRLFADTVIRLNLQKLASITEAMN; partner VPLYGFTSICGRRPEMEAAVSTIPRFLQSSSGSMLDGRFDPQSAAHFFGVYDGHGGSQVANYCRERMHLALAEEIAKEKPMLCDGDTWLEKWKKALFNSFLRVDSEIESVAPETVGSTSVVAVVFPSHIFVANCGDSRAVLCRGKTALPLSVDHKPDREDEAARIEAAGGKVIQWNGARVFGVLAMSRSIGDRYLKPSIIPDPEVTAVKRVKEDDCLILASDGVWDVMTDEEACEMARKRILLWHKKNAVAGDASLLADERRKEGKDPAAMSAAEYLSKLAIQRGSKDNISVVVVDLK
conditions	relative binding score
added: (+)-ABA 17 µM	73.4%
added: (+)-ABA 0.39 µM	0.724%
added: (+)-ABA 200 µM	91.9%
added: (+)-ABA 0.0091 µM	5.75%
added: (+)-ABA 710 µM	99.1%
added: (+)-ABA 4.8 µM	54.7%

Block 4
SMILES: CC(C)(O)c1cncc(-c2nc3ccc(F)cc3n2C2CC2)c1
Read-out: cell-free assay
Method: competition with immobilised ligand
Concentration: 1 µM
target	remaining binding [%]
cAMP-dependent protein kinase catalytic subunit beta (PRKACB, Homo sapiens, UniProt P22694)	77
Protein-tyrosine kinase 6 (PTK6, Homo sapiens, UniProt Q13882)	100
Serine/threonine-protein kinase 24 (STK24, Homo sapiens, UniProt Q9Y6E0)	100
cAMP-dependent protein kinase catalytic subunit alpha (PRKACA, Homo sapiens, UniProt P17612)	100
Phosphatidylinositol 4,5-bisphosphate 3-kinase catalytic subunit alpha isoform (PIK3CA, Homo sapiens, UniProt P42336, H1047L)	97
Mitogen-activated protein kinase kinase kinase 5 (MAP3K5, Homo sapiens, UniProt Q99683)	100
Death-associated protein kinase 1 (DAPK1, Homo sapiens, UniProt P53355)	100
Mitogen-activated protein kinase 6 (MAPK6, Homo sapiens, UniProt Q16659)	100
Cyclin-dependent kinase 9 (CDK9, Homo sapiens, UniProt P50750)	100
SRSF protein kinase 3 (SRPK3, Homo sapiens, UniProt Q9UPE1)	100
Receptor-type tyrosine-protein kinase FLT3 (FLT3, Homo sapiens, UniProt P36888, N841I)	100
Serine/threonine-protein kinase 17B (STK17B, Homo sapiens, UniProt O94768)	77

Some of these lines once more (block 4):
target	remaining binding [%]
Mitogen-activated protein kinase 6 (MAPK6, Homo sapiens, UniProt Q16659)	100
Death-associated protein kinase 1 (DAPK1, Homo sapiens, UniProt P53355)	100
SRSF protein kinase 3 (SRPK3, Homo sapiens, UniProt Q9UPE1)	100
cAMP-dependent protein kinase catalytic subunit beta (PRKACB, Homo sapiens, UniProt P22694)	77
